Measured values collected from several papers.
± marks the error that the study gave.
Organism: Salmonella typhimurium

O=[N+]([O-])c1ccc(N2CCC(NCCC(O)c3ccc(F)c4ccccc34)CC2)c(C(F)(F)F)c1 (stereo not drawn) gave an induction factor of 0.29 (genotoxicity, SOS/umu test; TA1535/pSK1002; 0.063 mg/mL, 4 h, without S9, full range).
COCCN(CCOC)N=O — result for “revertant colonies per plate”: 17.7 ± 4 (mutagenicity, Ames plate incorporation; TA1535; 1500 µg/plate, 3 d, without S9, methanol).
For CC(=O)N1CCC(C(=O)N2CCN3C(=O)c4cc(-c5ccccc5)ccc4NC(=O)C3C2)CC1 (stereo not drawn), “fold increase in revertants” read 1.3 (TA1537; 5000 µg/plate, added: rat liver S9; baseline: vehicle).
Under “revertant colonies per plate”, CN(CC(C)(C)C)N=O is recorded as 148 ± 6 (mutagenicity, Ames plate incorporation; TA100; 150 µg/plate, without S9, methanol).
With OC(CCN1CC=C(c2ccc(F)cc2)CC1)c1ccc(F)c2ccccc12 (stereo not drawn) the survival was 38.8% (SOS/umu test; TA1535/pSK1002; 0.063 mg/mL, 4 h, with S9, full range).
For COc1cccc(-c2n[nH]c(SCc3ccccn3)n2)c1OC, “revertant colonies per plate” read 26 (Ames test, preincubation; TA98; 0.063 mg/plate, with rat liver S9).
With O=[N+]([O-])c1ccc(NC2CCNCC2)c(C(F)(F)F)c1 the survival was 86.4% (SOS/umu test; TA1535/pSK1002, TGA medium; 0.25 mg/mL, 4 h, added: 10% rat liver S9).
CC(C)N(C)N=O: “revertant colonies per plate” 28.3 ± 1 (mutagenicity, Ames plate incorporation; TA98; 150 µg/plate, 3 d, without S9, methanol).
For O=[N+]([O-])c1ccc(N2CCN(CCC(O)c3ccc(F)cc3)CC2)c(C(F)(F)F)c1 (stereo not drawn), the induction factor was 1 (genotoxicity, SOS/umu test; TA1535/pSK1002; 0.001 mg/mL, 4 h, with S9, lower range).
The viability of N#C[C@@]1(n2ccc(N)nc2=O)O[C@H](CO)[C@@H](O)[C@H]1O is reported as 79.5 (TA100; 50 µM, without S9, unit not given; baseline: control).
For O=NN1CCN(C2CCCC2)CC1, “revertant colonies per plate” read 26 ± 4 (mutagenicity, Ames plate incorporation; TA98; 1500 µg/plate, 3 d, without S9, methanol).
The revertant ratio of Cc1cc(C(=O)NC(C)(C)COc2cccc3c2C(N)=NS(=O)(=O)N3)cc(C)n1 is reported as 0.9 (Ames test, initial; TA98; 50.0 µg/plate, added: rat liver S9; baseline: solvent control).

Excerpt of the above:
With O=[N+]([O-])c1ccc(NC2CCNCC2)c(C(F)(F)F)c1 the survival was 86.4% (SOS/umu test; TA1535/pSK1002, TGA medium; 0.25 mg/mL, 4 h, added: 10% rat liver S9).
CC(C)N(C)N=O: “revertant colonies per plate” 28.3 ± 1 (mutagenicity, Ames plate incorporation; TA98; 150 µg/plate, 3 d, without S9, methanol).
